{"data": "Measurements pooled from the literature", "note": "Each line is one published result; not all experiments were run side by side. ± gives the spread as reported."}
{"Compound": "NC/C(=C\\F)COc1cccc(Cn2c(=S)[nH]c(=O)c3[nH]cnc32)c1", "system": "dog plasma", "conditions": "10 µM, 5 (unit not given)", "fraction unbound": 0.25}
{"Compound": "N#Cc1cc(-c2ccc(C(=O)N3CCNCC3)cc2)ccc1-n1cc(O)c(=O)c(C(=O)O)c1", "system": "human plasma", "fraction unbound": 0.74}
{"Compound": "O=C1C2N=CN3C(NCc4c(F)ccc5c4CCO5)=NC=C(c4cnc(C(F)(F)F)cc4CN1CC(F)F)C23 (stereo not shown)", "system": "mouse plasma", "fraction unbound": "< 0.01"}
{"Compound": "CC(=O)CC(c1ccccc1)c1c(O)c2ccccc2oc1=O (stereo not shown)", "test": "equilibrium dialysis", "system": "female Balb/c mouse plasma", "conditions": "2 µM, 6 h", "fraction unbound": "< 0.01"}
{"Compound": "CN1CCN(c2ccc(C(=O)Nc3n[nH]c4ccc(Cc5cc(F)cc(F)c5)cc34)c(NC3CCOCC3)c2)CC1", "test": "equilibrium dialysis", "system": "cell medium with 10% FBS", "fraction unbound": 0.16}
{"Compound": "CN1CCN(C2=Nc3cc(Cl)ccc3Nc3ccccc32)CC1", "test": "ultrafiltration", "system": "rat plasma", "conditions": "5 µM, 30 min", "fraction unbound": 0.09}
{"Compound": "O=C1CN(c2nc(=O)c3cc(C(F)(F)F)cc([N+](=O)[O-])c3s2)CCN1C1CCCC1", "test": "equilibrium dialysis", "system": "human plasma", "conditions": "1 µM, 18 h, pH 7.4", "fraction unbound": 0.093}
{"Compound": "O=S(=O)(c1ccc(-c2ccc3nccc(Nc4ccccc4)c3c2)cc1)N1CCOCC1", "system": "human plasma", "fraction unbound": 0.012}
{"Compound": "COCC(=O)N1CCC[C@H](C(=O)NCc2nc(-c3ccc(C#N)cc3)cs2)C1", "system": "mouse plasma", "conditions": "6 h", "fraction unbound": 0.13}
{"Compound": "CN(c1ncco1)c1ncnc2ccc(-c3cccc(N4CCOCC4)c3)cc12", "system": "human plasma", "fraction unbound": 0.11}
{"Compound": "CC(C)NCC(O)COc1cccc2ccccc12 (stereo not shown)", "test": "rapid equilibrium dialysis", "system": "human plasma", "conditions": "10 µM, 4 h, 37 °C", "fraction unbound": 0.186}
{"Compound": "Cc1cc(Nc2ccc(S(F)(F)(F)(F)F)cc2)n2nc(C(C)(F)F)nc2n1", "test": "equilibrium dialysis", "system": "RPMI medium with 10% FBS", "conditions": "24 h", "fraction unbound": "0.12 ± 0.0043"}
{"Compound": "COc1ccc2[nH]c([S+]([O-])Cc3ncc(C)c(OC)c3C)nc2c1 (stereo not shown)", "test": "rapid equilibrium dialysis", "system": "10% human plasma", "conditions": "2 µM, 24 h, pH 7.4", "fraction unbound": 0.029}
{"Compound": "c1cc(-c2ccc3ncnc(Nc4ncco4)c3c2)nc(N2CCOCC2)c1", "system": "human plasma", "fraction unbound": 0.0051}
{"Compound": "O=C(CS(=O)(=O)O)Nc1ccc(N2CCOCC2)c(Br)c1", "test": "equilibrium dialysis", "system": "mouse plasma", "conditions": "4.5 h", "fraction unbound": "> 0.2"}
{"Compound": "CCCC[C@@H]1NC(=O)[C@H](Cc2ccc(O)cc2)NC(=O)[C@@H]2CCCN2C(=O)[C@H](CC(=O)O)NC(=O)[C@H](C)NC(=O)[C@H](Cc2ccccc2)NC(=O)[C@@H]2CSCCC(=O)N3CN(CN(C3)C(=O)CCSC[C@@H](C(=O)N[C@@H](C)C(N)=O)NC1=O)C(=O)CCSC[C@H](NC(C)=O)C(=O)N[C@@H](CC(C)(C)C)C(=O)N1CCC[C@H]1C(=O)N[C@@H](CCC(=O)O)C(=O)N[C@H](CCCCNC(=O)CCc1cn(CCOCCOCCOCCOCCOCCOCCOCCOCCOCCOCCNC(=O)c3cc(C(=O)NCCOCCOCCOCCOCCOCCOCCOCCOCCOCCOCCn4cc(CCC(=O)NCCCC[C@H]5NC(=O)[C@H](CCC(=O)O)NC(=O)[C@@H]6CCCN6C(=O)[C@H](CC(C)(C)C)NC(=O)[C@@H](NC(C)=O)CSCCC(=O)N6CN7CN(C6)C(=O)CCSC[C@H](NC(=O)[C@H](Cc6ccc(O)cc6)NC(=O)[C@@H]6CCCN6C5=O)C(=O)N[C@@H](Cc5ccccc5)C(=O)N[C@@H](C)C(=O)N[C@@H](CC(=O)O)C(=O)N5CCC[C@H]5C(=O)N[C@@H](Cc5ccc(O)cc5)C(=O)N[C@@H](CCCC)C(=O)N[C@H](C(=O)N[C@@H](C)C(N)=O)CSCCC7=O)nn4)cc(C(=O)NCCOCCOCCOCCOCCOCCOCCOCCOCCOCCOCCn4cc(CCC(=O)N[C@H]5CSCCC(=O)N6CN7CN(C6)C(=O)CCSC[C@H](NC(=O)[C@@H](CC(=O)O)NC(=O)[C@H](Cc6cccc8ccccc68)NC(=O)[C@@H]6CCCN6C5=O)C(=O)N[C@@H](CCSC)C(=O)N[C@@H](CCCCNC(=N)N)C(=O)N[C@@H](CC(=O)O)C(=O)N[C@@H](Cc5c[nH]c6ccccc56)C(=O)N[C@@H](CO)C(=O)N[C@@H]([C@@H](C)O)C(=O)N5CCC[C@H]5C(=O)N5C[C@H](O)C[C@H]5C(=O)N[C@@H](Cc5c[nH]c6ccccc56)C(=O)N[C@H](C(N)=O)CSCCC7=O)nn4)c3)nn1)C(=O)N1CCC[C@H]1C(=O)N[C@@H](Cc1ccc(O)cc1)C(=O)N2", "test": "ultracentrifugation", "system": "rat plasma", "fraction unbound": 0.18}
{"Compound": "CCOC(F)(F)c1nnc2cnc(-c3cnc(OCC(F)(F)F)c(F)c3)cn12", "system": "mouse plasma", "fraction unbound": 0.081}
{"Compound": "CCc1nnc(Nc2ccnc3ccc(-c4ccc(S(=O)(=O)N5CCOCC5)cc4)cc23)s1", "system": "human plasma", "fraction unbound": 0.018}
{"Compound": "CC(F)(F)CN1Cc2cc(C(F)(F)F)ncc2C2=CN=C(NCc3c(F)ccc4c3CCO4)N3C=NC(C1=O)C23 (stereo not shown)", "system": "mouse plasma", "fraction unbound": "< 0.01"}
{"Compound": "CO[C@]1(C(=O)N[C@@H](C)c2ccc(-n3cc(F)cn3)nc2)CC[C@H](c2nc(C)cc(Nc3cc(C)[nH]n3)n2)CC1", "system": "plasma", "fraction unbound": 0.032}
{"Compound": "CN1CCN(c2cccc(-c3ccc4ncnc(Nc5ccc(Cl)c(C(F)(F)F)c5)c4c3)c2)CC1", "system": "human plasma", "fraction unbound": "< 0.0032"}
{"Compound": "Cc1onc(-c2ccccc2Cl)c1C(=O)N[C@@H]1C(=O)N2[C@@H]1SC(C)(C)[C@@H]2C(=O)O", "test": "ultrafiltration", "system": "human, patient plasma", "fraction unbound": 0.35}
{"Compound": "CO[C@H]1/C=C/O[C@@]2(C)Oc3c(C)c(O)c4c(c3C2=O)C2=NC3(CCN(CC(C)C)CC3)NC2=C(NC(=O)/C(C)=C\\C=C\\[C@H](C)[C@H](O)[C@@H](C)[C@@H](O)[C@@H](C)[C@H](OC(C)=O)[C@@H]1C)C4=O", "system": "human plasma", "fraction unbound": 0.0383}
{"Compound": "Cn1c(=O)c2c(ncn2C)n(C)c1=O", "test": "rapid equilibrium dialysis", "system": "human plasma", "conditions": "2 µM, 6 h, pH 7.4", "fraction unbound": 0.753}
{"Compound": "Clc1ccc(COc2cncc(-c3cnn(C4CCNCC4)c3)c2)c(Cl)c1", "system": "mouse plasma", "fraction unbound": 0.0184}
{"Compound": "O=S(=O)(c1ccc(-c2ccc3nccc(Nc4ccncc4)c3c2)cc1)N1CCOCC1", "system": "human plasma", "fraction unbound": 0.059}
{"Compound": "CC(C)(C)NC[C@H](O)COc1nsnc1N1CCOCC1", "test": "equilibrium dialysis", "system": "human plasma", "fraction unbound": 0.715}
{"Compound": "CC#Cc1cncc(-c2ccc3c(c2)[C@@]2(N=C(C)C(N)=N2)[C@]2(CC[C@H](OC)CC2)C3)c1", "test": "equilibrium dialysis", "system": "rat plasma", "conditions": "6 h, pH 7.4", "fraction unbound": 0.05}
{"Compound": "O=S(=O)(c1ccc(-c2ccc3nccc(Nc4ccc(OCc5cccc(F)c5)cc4)c3c2)cc1)N1CCOCC1", "system": "human plasma", "fraction unbound": "< 0.001"}
{"Compound": "C=C(F)C(=O)N1CCN(c2nc(OC[C@@H]3CCCN3C)nc3c2CCN(c2cccc4cccc(Cl)c24)C3)C[C@@H]1CC#N", "test": "equilibrium dialysis", "system": "human plasma", "fraction unbound": 0.023}
{"Compound": "Cc1noc2c1-c1ccccc1C(c1ccc(Cl)cc1)=N[C@H]2CC(N)=O", "test": "equilibrium dialysis", "system": "mouse brain homogenate", "conditions": "1 µM, 6 h, pH 7.4", "fraction unbound": "0.0437 ± 0.0126"}
{"Compound": "O=C(O)Cc1ccccc1Nc1c(Cl)cccc1Cl", "test": "rapid equilibrium dialysis", "system": "10% human plasma", "conditions": "2 µM, 24 h, pH 7.4", "fraction unbound": 0.0022}
{"Compound": "CCn1c(C(=O)N(C2CC2)C2CC2)cc2c3c(ncn3C)c(Nc3cc(C)n(C)n3)nc21", "system": "plasma", "fraction unbound": 0.02}
{"Compound": "C=CC(=O)N1CC2(CCN(c3nc4c(c(-c5cc(O)cc6ccccc56)c3F)COC(C)(C)C4)C2)C1", "system": "mouse plasma", "fraction unbound": 0.007}
{"Compound": "C[C@@H]1CN(c2cccc(-c3ccc4ncnc(Nc5ncco5)c4c3)c2)C[C@H](C)O1", "system": "human plasma", "fraction unbound": 0.002}
{"Compound": "N#C[C@@]1(c2ccc3c(N)ncnn23)O[C@H](CO)[C@@H](O)[C@H]1O", "system": "monkey plasma", "conditions": "1 µM", "fraction unbound": 0.829}
{"Compound": "CC(C)(C)c1cc(C(C)(C)C)c(NC(=O)c2c[nH]c3ccccc3c2=O)cc1O", "test": "rapid equilibrium dialysis", "system": "human, plasma", "conditions": "6 h post-dose", "fraction unbound": "~0.046"}
